Measurements pooled from the literature.
Each line is one published result; not all experiments were run side by side. Several values in a cell are separate wells, animals, samples, runs or records. ± gives the spread as reported.
UniProt Q9NZ01, sequence (whole entry, looked up): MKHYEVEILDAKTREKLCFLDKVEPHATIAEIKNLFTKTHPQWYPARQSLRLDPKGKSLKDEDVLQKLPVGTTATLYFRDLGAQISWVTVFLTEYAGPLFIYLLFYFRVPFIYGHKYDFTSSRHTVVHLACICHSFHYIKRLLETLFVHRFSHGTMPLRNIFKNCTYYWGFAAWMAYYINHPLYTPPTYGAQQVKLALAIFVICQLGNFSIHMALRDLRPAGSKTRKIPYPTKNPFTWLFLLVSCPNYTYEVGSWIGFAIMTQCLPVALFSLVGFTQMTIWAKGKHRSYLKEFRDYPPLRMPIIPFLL

| Structure (SMILES) | target or system | test | system | conditions | scale | measurement | value |
| --- | --- | --- | --- | --- | --- | --- | --- |
| CC(=O)OC[C@H]1O[C@@H](Oc2cc(O)cc3cc4oc(C)cc(=O)c4c(O)c23)[C@H](O)[C@@H](O)[C@@H]1O | HepaRG co-cultured with HK-2 | MTT |  | 66.67 µM, 48 h | relative to: untreated control | cell viability | 80.1 ± 22% |
| C=C(C)C12OC3(c4ccccc4)OC1[C@@H]1[C@@H]4O[C@]4(CO)[C@@H](O)[C@]4(O)C(=O)C(C)=C[C@H]4C1(O3)[C@H](C)[C@H]2OC(=O)/C=C/C=C/C=C/CCC (some centres unmarked) | MT-4 | cell viability |  |  |  | IC50 | 8.97 ± 1.21 µM |
| CN(CCC=C1c2ccccc2CCc2ccccc21)N=O | TK6 expressing CYP2B6 | micronucleus induction |  | 24 h, without S9 |  | LOAEL | < 1 µM |
| O=c1ccc2ccccc2o1 | HepaRG 3D spheroids | mitochondrial mass |  | 72 h, high-content imaging |  | point of departure | 549 µM |
| O=C1c2ccccc2C(=O)c2ccccc21 | HepaRG co-cultured with HK-2 | MTT |  | 133.33 µM, 48 h | relative to: untreated control | cell viability | 34 ± 7.97% |
| Nc1nc2c(ncn2COCCO)c(=O)[nH]1 | HEL | cell morphology |  |  |  | minimal cytotoxic concentration | > 250 µM |
| O=C(O)C(F)(F)C(F)(F)C(F)(F)C(F)(F)F | hTERT-RPTEC-OAT1 |  |  | concentration not given, Transwell, apical-to-basolateral addition |  | LDH release | 15.7 mU/mL and 12.5 mU/mL and 17.1 mU/mL and 15.8 mU/mL |
| Cc1cc(C(C)(C)c2ccc(O)c(C)c2)ccc1O | HepG2 spheroids | annexin V-FITC/PI flow cytometry |  | 0.1 µM, 24 h |  | necrotic cells | 6.4 ± 2.12% |
| COC(=O)C=Cc1ccc(OC(C)=O)c(OC)c1 | HaCaT | MTT |  | 24 h, 10% FBS |  | subcytotoxic concentration | 50 µM |
| CC1=C(O)C(=O)C=C2C1=CC=C1[C@@]2(C)CC[C@@]2(C)[C@@H]3C[C@](C)(C(=O)O)CC[C@]3(C)CC[C@]12C | COS-7 | WST-8 |  | 3 µM, 24 h, 0.1% DMSO, unit not given | relative to: vehicle control | metabolic activity | 0.69 ± 0.31 |
| Cn1cc2cc(C(F)(F)c3nnc4ccc(-c5cnn(C6CC6)c5)nn34)c(F)cc2n1 | MKN-45 | CCK-8 |  | 0.05 µM, 72 h | relative to: untreated | viability | 6.8% and 6.44% and 5.85% |
| CC(c1ccccc1)(c1ccc(O)cc1)c1ccc(O)cc1 | HepG2 spheroids | annexin V-FITC/PI flow cytometry |  | 10 µM, 96 h |  | necrotic cells | 27.1 ± 7.95% |
| CC[C@H](C)[C@H](NC(=O)[C@H](CCCCN)NC(=O)[C@H](CC(N)=O)NC(=O)[C@H](CCCNC(=N)N)NC(=O)[C@H](C)NC(=O)[C@H](CC(C)C)NC(=O)[C@H](CC(C)C)NC(=O)[C@H](CCSC)NC(=O)[C@H](Cc1c[nH]cn1)NC(=O)[C@H](CC(C)C)NC(=O)[C@@H](N)CC(C)C)C(=O)N[C@@H](CCCNC(=N)N)C(=O)N[C@H](C(=O)N[C@@H](CC(C)C)C(=O)N[C@@H](CCCCN)C(=O)N[C@@H](CC(N)=O)C(=O)N[C@@H](CC(N)=O)C(=O)N[C@@H](CCSC)C(=O)N[C@@H](Cc1ccccc1)C(=O)N[C@@H](CO)C(=O)N[C@@H](CCCCN)C(=O)N[C@@H](Cc1ccccc1)C(=O)N[C@@H](CCCCN)C(=O)N[C@@H](CCCCN)C(=O)N[C@@H](CC(C)C)C(=O)N[C@@H](CCCCN)C(=O)N[C@@H](CO)C(=O)N[C@@H](CC(C)C)C(=O)O)[C@@H](C)O | HaCaT | cell viability, MTT |  | 24 h |  | CC50 | 1200 µM |
| COP(=O)(OC)OC=C(Cl)Cl | MCF7 AREc32 cells | cell viability, IncuCyte imaging |  | 24 h, freely dissolved concentration |  | IC10 | 3.82 µM |
| CC[C@H](C)[C@H](NC(=O)[C@H](CCCNC(=N)N)NC(=O)[C@H](CCC(N)=O)NC(=O)[C@@H](NC(=O)[C@@H](NC(=O)[C@H](CCCNC(=N)N)NC(=O)[C@H](CCCCN)NC(=O)[C@H](Cc1ccccc1)NC(=O)CN)[C@@H](C)CC)C(C)C)C(=O)N[C@@H](CCCCN)C(=O)N[C@@H](CC(=O)O)C(=O)N[C@@H](Cc1ccccc1)C(=O)N[C@@H](CC(C)C)C(=O)N[C@@H](CCCNC(=N)N)C(=O)N[C@@H](CC(N)=O)C(=O)N[C@@H](CC(C)C)C(=O)N[C@H](C(N)=O)C(C)C | HEK293 | cell viability, MTS |  | serum-free |  | LC50 | 35 µM |
| CC[C@H](C)[C@H](NC(=O)[C@H](CC(C)C)NC(=O)[C@@H]1CCCN1C(=O)[C@H](CCC(N)=O)NC(=O)[C@H](CCCCN)NC(=O)[C@H](Cc1c[nH]cn1)NC(=O)[C@H](CS)NC(=O)[C@H](CCCNC(=N)N)NC(=O)[C@H](CCCCN)NC(=O)[C@H](CO)NC(=O)[C@H](CC(C)C)NC(=O)[C@H](CO)NC(=O)[C@H](Cc1ccccc1)NC(=O)[C@H](CC(C)C)NC(=O)[C@H](CCCCN)NC(=O)[C@H](Cc1c[nH]cn1)NC(=O)[C@@H](NC(=O)[C@@H](NC(=O)[C@H](CCCCN)NC(=O)[C@H](CCC(N)=O)NC(=O)[C@H](C)NC(=O)[C@H](CCCCN)NC(=O)[C@H](CC(C)C)NC(=O)[C@H](Cc1ccccc1)NC(=O)[C@H](CC(C)C)NC(=O)[C@H](CCC(N)=O)NC(=O)[C@@H](N)CCCCN)[C@@H](C)CC)C(C)C)C(=O)N[C@@H](CO)C(=O)N[C@@H](CC(C)C)C(=O)N1CCC[C@H]1C(=O)N[C@@H](CCCNC(=N)N)C(=O)N[C@@H](CCC(N)=O)C(=O)N[C@@H](CCCNC(=N)N)C(=O)O | HaCaT | cell viability, MTT |  |  |  | CC50 | 31.4 µM |
| C#CCCC[C@H]1OC(=O)[C@H](C(C)C)N(C)C(=O)[C@@H]2CCCN2C(=O)[C@H]([C@@H](C)CC)OC(=O)[C@H]([C@@H](C)CC)N(C)C(=O)[C@H]([C@@H](C)CC)NC(=O)[C@H]1C | HEK293 | resazurin reduction |  | 30 µM, 24 h |  | cytotoxicity | not toxic |
| O=C(O)C(F)(F)C(F)(F)C(F)(F)C(F)(F)C(F)(F)C(F)(F)C(F)(F)C(F)(F)C(F)(F)C(F)(F)F | hTERT-RPTEC-OAT1 |  |  | concentration not given, 96-well plate |  | LDH release | 3.2 mU/mL and 4.62 mU/mL and 3.86 mU/mL and 4.08 mU/mL |
| N#C[C@H](C[C@@H]1CCCNC1=O)NC(=O)[C@H](CC1CC1)NC(=O)c1cc2cccc(Cl)c2[nH]1 | cryopreserved human hepatocytes | refers to: CYP2B6 |  | 10 µM, 72 h | relative to: vehicle | mRNA level | ≤ 8.1 fold |
| O=S(=O)(O)C(F)(F)C(F)(F)C(F)(F)C(F)(F)F | hTERT-RPTEC-OAT1 |  |  | concentration not given, 96-well plate |  | LDH release | 4.99 mU/mL and 4.59 mU/mL and 4.79 mU/mL and 5.25 mU/mL |
| CC[C@H](C)[C@@H]1NC(=O)[C@@H]2CCCN2C(=O)[C@H](CC(C)C)NC(=O)[C@H](CC(C)C)NC(=O)CNC(=O)[C@@H](NC(=O)[C@@H](NC(=O)[C@H](CC(=O)O)NC(=O)CNC(=O)[C@@H](NC(=O)[C@H](C)NC(=O)CNC(=O)[C@H](CCCCN)NC(=O)[C@H](CC(C)C)NC(=O)[C@H](CC(C)C)NC(=O)[C@H](CCCCN)NC(=O)CNC(=O)[C@@H](NC(=O)[C@@H](N)CC(C)C)C(C)C)C(C)C)C(C)C)CSSC[C@@H](C(=O)O)NC1=O |  | RNA-seq, refers to: Themis2 | mouse, traumatic brain injury model, frontal cortex and hippocampus | dose not given | relative to: TBI alone | log2 fold change | -2.89 |
| C[C@H]1CN(c2n[nH]c3nc(N[C@H]4CC[C@H](NS(=O)(=O)CCC(F)(F)F)CC4)ncc23)CCO1 | Very-long-chain enoyl-CoA reductase (Homo sapiens, UniProt Q9NZ01) | Kinobeads competition, refers to: GPSN2 |  | 0.16 µM, unit not given | relative to: vehicle | remaining binding | 0.93 |
| CC(C)C[C@H](NC(=O)[C@H](CCCNC(=N)N)NC(=O)CNC(=O)CNC(=O)CNC(=O)c1ccc2c(c1)C(=O)OC21c2ccc(O)cc2Oc2cc(O)ccc21)C(=O)N[C@@H](CO)C(=O)N[C@@H](CO)C(=O)N[C@H](C(=O)N[C@@H](CC(=O)O)C(=O)N[C@@H](CO)C(=O)N[C@@H](CC(=O)O)C(=O)N[C@@H](CC(C)C)C(=O)N[C@@H](CO)C(=O)NCC(=O)N[C@@H](CS)C(N)=O)C(C)C | hCMEC/D3 monolayers | BBB permeability, Transwell, refers to: CF-labelled compound | EGM-2 medium | concentration not given, 2 h, apical to basal | relative to: fluorescence added apically | transport ratio | 6.6% |
| COc1ccc2c(c1OC)C(=O)c1c(cc(C)c(O)c1OC)C2=O | HK-2 co-cultured with HepaRG | MTT |  | 133.33 µM, 48 h | relative to: untreated control | cell viability | 39 ± 1.67% |
| Oc1ccc(C(c2ccc(O)cc2)(C(F)(F)F)C(F)(F)F)cc1 | HepG2 spheroids | annexin V-FITC/PI flow cytometry |  | 1 µM, 24 h |  | necrotic cells | 5.32 ± 2.1% |
| O=C(O)Cc1ccccc1Nc1c(Cl)cccc1Cl | 3D spheroids |  |  | 2 days |  | cytotoxic concentration | 100 µM |
| CC(C)(C)NC(=O)N[C@H](C(=O)N1C[C@H]2[C@@H]([C@H]1C(=O)NC(CC1CCC1)C(=O)C(N)=O)C2(C)C)C(C)(C)C (some centres unmarked) | HEK293T | cell viability, MTT |  | 48 (unit not given) |  | CC50 | > 50 µM |
| N#C[C@@]1(n2ccc(N)nc2=O)O[C@H](CO)[C@@H](O)[C@H]1O | CHO |  |  | 31 µM, without S9 |  | micronucleated cells | 0.23% |
| Cc1cc2c(c(O)c1O)C(=O)c1c(O)cc(O)cc1C2=O | HepaRG co-cultured with HK-2 | MTT |  | 16.67 µM, 24 h | relative to: untreated control | cell viability | 61.2 ± 8.8% |

Excerpt of the above:
| Structure (SMILES) | target or system | test | system | conditions | scale | measurement | value |
| --- | --- | --- | --- | --- | --- | --- | --- |
| COC(=O)C=Cc1ccc(OC(C)=O)c(OC)c1 | HaCaT | MTT |  | 24 h, 10% FBS |  | subcytotoxic concentration | 50 µM |
| CC[C@H](C)[C@@H]1NC(=O)[C@@H]2CCCN2C(=O)[C@H](CC(C)C)NC(=O)[C@H](CC(C)C)NC(=O)CNC(=O)[C@@H](NC(=O)[C@@H](NC(=O)[C@H](CC(=O)O)NC(=O)CNC(=O)[C@@H](NC(=O)[C@H](C)NC(=O)CNC(=O)[C@H](CCCCN)NC(=O)[C@H](CC(C)C)NC(=O)[C@H](CC(C)C)NC(=O)[C@H](CCCCN)NC(=O)CNC(=O)[C@@H](NC(=O)[C@@H](N)CC(C)C)C(C)C)C(C)C)C(C)C)CSSC[C@@H](C(=O)O)NC1=O |  | RNA-seq, refers to: Themis2 | mouse, traumatic brain injury model, frontal cortex and hippocampus | dose not given | relative to: TBI alone | log2 fold change | -2.89 |
| CC[C@H](C)[C@H](NC(=O)[C@H](CC(C)C)NC(=O)[C@@H]1CCCN1C(=O)[C@H](CCC(N)=O)NC(=O)[C@H](CCCCN)NC(=O)[C@H](Cc1c[nH]cn1)NC(=O)[C@H](CS)NC(=O)[C@H](CCCNC(=N)N)NC(=O)[C@H](CCCCN)NC(=O)[C@H](CO)NC(=O)[C@H](CC(C)C)NC(=O)[C@H](CO)NC(=O)[C@H](Cc1ccccc1)NC(=O)[C@H](CC(C)C)NC(=O)[C@H](CCCCN)NC(=O)[C@H](Cc1c[nH]cn1)NC(=O)[C@@H](NC(=O)[C@@H](NC(=O)[C@H](CCCCN)NC(=O)[C@H](CCC(N)=O)NC(=O)[C@H](C)NC(=O)[C@H](CCCCN)NC(=O)[C@H](CC(C)C)NC(=O)[C@H](Cc1ccccc1)NC(=O)[C@H](CC(C)C)NC(=O)[C@H](CCC(N)=O)NC(=O)[C@@H](N)CCCCN)[C@@H](C)CC)C(C)C)C(=O)N[C@@H](CO)C(=O)N[C@@H](CC(C)C)C(=O)N1CCC[C@H]1C(=O)N[C@@H](CCCNC(=N)N)C(=O)N[C@@H](CCC(N)=O)C(=O)N[C@@H](CCCNC(=N)N)C(=O)O | HaCaT | cell viability, MTT |  |  |  | CC50 | 31.4 µM |
| CC[C@H](C)[C@H](NC(=O)[C@H](CCCNC(=N)N)NC(=O)[C@H](CCC(N)=O)NC(=O)[C@@H](NC(=O)[C@@H](NC(=O)[C@H](CCCNC(=N)N)NC(=O)[C@H](CCCCN)NC(=O)[C@H](Cc1ccccc1)NC(=O)CN)[C@@H](C)CC)C(C)C)C(=O)N[C@@H](CCCCN)C(=O)N[C@@H](CC(=O)O)C(=O)N[C@@H](Cc1ccccc1)C(=O)N[C@@H](CC(C)C)C(=O)N[C@@H](CCCNC(=N)N)C(=O)N[C@@H](CC(N)=O)C(=O)N[C@@H](CC(C)C)C(=O)N[C@H](C(N)=O)C(C)C | HEK293 | cell viability, MTS |  | serum-free |  | LC50 | 35 µM |
| CC(=O)OC[C@H]1O[C@@H](Oc2cc(O)cc3cc4oc(C)cc(=O)c4c(O)c23)[C@H](O)[C@@H](O)[C@@H]1O | HepaRG co-cultured with HK-2 | MTT |  | 66.67 µM, 48 h | relative to: untreated control | cell viability | 80.1 ± 22% |
